Assay results pooled from the literature.
Each numbered part is a random draw from the data of one study; scales do not carry over between parts.
Chain of UniProt Q8NFD2 (whole entry, looked up): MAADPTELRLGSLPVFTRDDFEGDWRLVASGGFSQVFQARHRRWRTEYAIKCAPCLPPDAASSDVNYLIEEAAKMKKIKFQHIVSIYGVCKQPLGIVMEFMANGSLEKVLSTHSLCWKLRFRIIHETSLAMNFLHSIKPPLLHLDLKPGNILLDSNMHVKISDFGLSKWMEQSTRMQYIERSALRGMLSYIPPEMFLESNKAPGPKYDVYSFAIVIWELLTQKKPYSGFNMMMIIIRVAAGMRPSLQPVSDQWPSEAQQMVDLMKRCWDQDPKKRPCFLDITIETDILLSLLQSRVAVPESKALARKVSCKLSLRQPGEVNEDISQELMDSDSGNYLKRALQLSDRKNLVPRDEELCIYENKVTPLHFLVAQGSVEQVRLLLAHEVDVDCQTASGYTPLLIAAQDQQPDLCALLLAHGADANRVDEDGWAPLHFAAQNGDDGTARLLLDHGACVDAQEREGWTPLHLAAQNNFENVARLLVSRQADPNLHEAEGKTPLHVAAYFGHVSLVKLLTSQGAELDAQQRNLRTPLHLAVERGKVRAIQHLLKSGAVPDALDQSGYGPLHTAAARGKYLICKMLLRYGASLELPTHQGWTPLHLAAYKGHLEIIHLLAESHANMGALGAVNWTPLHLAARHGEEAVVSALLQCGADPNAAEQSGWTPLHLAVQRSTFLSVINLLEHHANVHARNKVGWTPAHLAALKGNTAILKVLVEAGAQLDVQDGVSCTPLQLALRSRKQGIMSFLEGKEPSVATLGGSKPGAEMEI
Chain of UniProt P31152 (whole entry, looked up): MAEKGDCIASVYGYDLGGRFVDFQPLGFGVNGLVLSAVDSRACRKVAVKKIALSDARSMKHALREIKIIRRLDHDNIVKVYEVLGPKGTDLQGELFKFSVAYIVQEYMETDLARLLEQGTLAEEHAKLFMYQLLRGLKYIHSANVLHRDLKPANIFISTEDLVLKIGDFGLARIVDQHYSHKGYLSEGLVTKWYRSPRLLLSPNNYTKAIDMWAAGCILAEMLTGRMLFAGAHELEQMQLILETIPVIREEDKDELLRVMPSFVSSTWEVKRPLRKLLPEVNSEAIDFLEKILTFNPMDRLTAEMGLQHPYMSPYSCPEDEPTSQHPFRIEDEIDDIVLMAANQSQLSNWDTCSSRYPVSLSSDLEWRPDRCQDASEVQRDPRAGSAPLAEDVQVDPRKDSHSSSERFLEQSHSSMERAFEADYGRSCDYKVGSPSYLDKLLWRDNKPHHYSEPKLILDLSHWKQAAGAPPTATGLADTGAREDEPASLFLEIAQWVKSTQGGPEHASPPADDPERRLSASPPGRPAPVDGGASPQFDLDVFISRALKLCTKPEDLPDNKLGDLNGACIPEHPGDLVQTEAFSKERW
Chain of UniProt P36894 (whole entry, looked up): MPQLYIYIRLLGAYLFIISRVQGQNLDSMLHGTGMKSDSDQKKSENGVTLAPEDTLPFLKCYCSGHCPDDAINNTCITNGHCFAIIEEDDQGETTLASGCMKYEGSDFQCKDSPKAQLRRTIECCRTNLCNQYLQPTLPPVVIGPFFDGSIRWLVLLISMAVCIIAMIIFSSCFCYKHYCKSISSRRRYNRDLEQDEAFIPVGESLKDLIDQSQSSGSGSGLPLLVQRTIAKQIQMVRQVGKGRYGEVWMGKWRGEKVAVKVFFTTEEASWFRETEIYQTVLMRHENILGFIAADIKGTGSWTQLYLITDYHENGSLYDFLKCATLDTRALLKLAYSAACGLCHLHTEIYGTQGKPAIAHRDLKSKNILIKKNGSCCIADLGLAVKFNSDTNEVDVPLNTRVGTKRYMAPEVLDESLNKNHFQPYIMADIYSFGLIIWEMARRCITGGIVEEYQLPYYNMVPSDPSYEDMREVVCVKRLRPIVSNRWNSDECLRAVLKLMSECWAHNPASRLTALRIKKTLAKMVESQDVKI
Chain of UniProt Q16659 (whole entry, looked up): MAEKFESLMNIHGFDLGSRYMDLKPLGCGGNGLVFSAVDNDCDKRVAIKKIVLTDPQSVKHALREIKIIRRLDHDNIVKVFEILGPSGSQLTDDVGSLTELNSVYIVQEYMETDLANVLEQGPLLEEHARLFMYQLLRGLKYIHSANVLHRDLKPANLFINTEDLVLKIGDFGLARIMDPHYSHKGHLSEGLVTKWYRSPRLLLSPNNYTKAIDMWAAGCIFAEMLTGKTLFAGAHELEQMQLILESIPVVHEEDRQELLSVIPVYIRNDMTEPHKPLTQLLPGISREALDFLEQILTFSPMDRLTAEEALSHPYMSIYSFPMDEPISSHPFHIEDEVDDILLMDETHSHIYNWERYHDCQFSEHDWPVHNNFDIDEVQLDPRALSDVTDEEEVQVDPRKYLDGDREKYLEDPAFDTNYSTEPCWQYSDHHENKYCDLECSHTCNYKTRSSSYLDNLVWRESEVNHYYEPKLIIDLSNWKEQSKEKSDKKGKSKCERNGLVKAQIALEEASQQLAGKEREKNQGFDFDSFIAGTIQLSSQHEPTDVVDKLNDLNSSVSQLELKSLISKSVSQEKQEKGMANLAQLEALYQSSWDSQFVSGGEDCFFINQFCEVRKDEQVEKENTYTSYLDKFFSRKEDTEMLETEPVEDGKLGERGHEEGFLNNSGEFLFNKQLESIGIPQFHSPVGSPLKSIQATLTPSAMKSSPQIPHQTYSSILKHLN
Chain of UniProt P68400 (whole entry, looked up): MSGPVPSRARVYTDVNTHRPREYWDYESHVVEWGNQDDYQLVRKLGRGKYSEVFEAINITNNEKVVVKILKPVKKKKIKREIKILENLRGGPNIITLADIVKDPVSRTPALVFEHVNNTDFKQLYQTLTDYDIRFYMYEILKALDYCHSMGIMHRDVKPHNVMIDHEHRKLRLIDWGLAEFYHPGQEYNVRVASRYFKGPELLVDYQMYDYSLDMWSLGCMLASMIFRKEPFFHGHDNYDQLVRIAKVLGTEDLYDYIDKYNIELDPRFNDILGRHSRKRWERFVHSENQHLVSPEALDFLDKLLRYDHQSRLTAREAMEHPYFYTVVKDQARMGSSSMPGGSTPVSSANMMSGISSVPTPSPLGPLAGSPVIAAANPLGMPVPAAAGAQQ
Chain of UniProt P50750 (whole entry, looked up): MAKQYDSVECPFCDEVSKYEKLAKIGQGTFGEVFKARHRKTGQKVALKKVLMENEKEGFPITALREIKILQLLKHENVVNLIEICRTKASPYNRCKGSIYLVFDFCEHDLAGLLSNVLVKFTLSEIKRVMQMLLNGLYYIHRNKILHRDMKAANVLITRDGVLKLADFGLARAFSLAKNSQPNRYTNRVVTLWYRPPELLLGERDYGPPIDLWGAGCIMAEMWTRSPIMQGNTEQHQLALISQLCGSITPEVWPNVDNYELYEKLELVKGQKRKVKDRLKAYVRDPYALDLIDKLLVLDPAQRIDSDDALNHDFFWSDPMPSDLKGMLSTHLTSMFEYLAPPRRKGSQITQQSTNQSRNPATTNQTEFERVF

Study 1
Target: Death-associated protein kinase 3 (DAPK3, Homo sapiens, UniProt O43293)
Chain of UniProt O43293 (whole entry, looked up): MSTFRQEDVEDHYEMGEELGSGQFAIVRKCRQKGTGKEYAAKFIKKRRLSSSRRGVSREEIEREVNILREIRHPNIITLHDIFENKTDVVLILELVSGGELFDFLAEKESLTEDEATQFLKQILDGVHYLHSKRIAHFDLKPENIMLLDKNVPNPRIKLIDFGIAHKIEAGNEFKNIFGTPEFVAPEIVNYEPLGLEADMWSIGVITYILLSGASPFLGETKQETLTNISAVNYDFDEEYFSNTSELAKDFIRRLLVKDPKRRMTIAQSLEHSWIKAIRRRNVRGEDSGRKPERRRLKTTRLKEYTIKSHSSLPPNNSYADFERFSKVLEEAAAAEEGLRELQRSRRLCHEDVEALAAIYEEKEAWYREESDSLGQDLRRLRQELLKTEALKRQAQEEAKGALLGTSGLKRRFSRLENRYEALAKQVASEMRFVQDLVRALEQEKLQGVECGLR
Observed: enzyme activity
Action: inhibitor
Concentration: 0.5 µM
Baseline: control
| Compound | remaining activity |
| --- | --- |
| Nc1ccc2ncnc(NCCc3ccc(Oc4ccccc4)cc3)c2c1 | 104% |
| COc1ccc(CNC(=O)Nc2ncc([N+](=O)[O-])s2)cc1 | 106% |
| O=C(Nc1cccc(Nc2cc(Nc3cccc(C(F)(F)F)c3)ncn2)c1)C1CC1 | 99.8% |
| Cn1c2ccccc2c2c3c(c4c5ccccc5n(CCC#N)c4c21)CNC3=O | 93.6% |
| Cc1ccc(Nc2nccc(N(C)c3ccc4c(C)n(C)nc4c3)n2)cc1S(N)(=O)=O | 92.3% |
| Cn1sc(=O)n(Cc2ccccc2)c1=O | 103% |
| O=c1c2ccccc2[nH]c(=S)n1CCN1CCC(=C(c2ccc(F)cc2)c2ccc(F)cc2)CC1 | 102% |
| O=C1NC(=O)C(c2cn(CCCn3ccnc3)c3ccccc23)=C1Nc1ccccc1 | 104% |
| COc1ccc(OC)c2c(=S)c3ccccc3[nH]c12 | 112% |
| Oc1ccc(-c2nc(-c3ccncc3)c(-c3ccc(F)cc3)[nH]2)cc1 | 100% |
| COc1cc2nccc(Oc3ccc(NC(=S)NC(=O)c4ccccc4C)cc3)c2cc1OC | 75.4% |
| O=C(CCCc1ccc(-c2ccccc2F)cc1)Nc1ccc(O)cc1 | 104% |
| Cc1ccc(NC(=O)c2ccc(CN3CCN(C)CC3)cc2)cc1Nc1nc(-c2cccnc2)cs1 | 100% |
| Cc1nc(-c2ccccc2)c(-c2ccncc2)o1 | 101% |

Study 2
SMILES: O=C(NC[C@@H]1[C@H]2CN(C(=O)OCc3cc(C(F)(F)F)cc(C(F)(F)F)c3)C[C@@H]12)c1ccc2[nH]nnc2c1
Method: competition with immobilised ligand
Concentration: 1 µM
| target | observed | remaining binding |
| --- | --- | --- |
| Casein kinase I isoform gamma-2 (CSNK1G2, Homo sapiens, UniProt P78368) | cell-free assay | 100% |
| Serine/threonine-protein kinase PAK 5 (PAK5, Homo sapiens, UniProt Q9P286) | cell-free assay | 100% |
| Cyclin-dependent kinase 9 (CDK9, Homo sapiens, UniProt P50750) | cell-free assay | 91% |
| Phosphatidylinositol 4,5-bisphosphate 3-kinase catalytic subunit beta isoform (PIK3CB, Homo sapiens, UniProt P42338) | cell-free assay | 100% |
| Tyrosine-protein kinase SYK (SYK, Homo sapiens, UniProt P43405) | cell-free assay | 100% |
| cAMP-dependent protein kinase catalytic subunit beta (PRKACB, Homo sapiens, UniProt P22694) | cell-free assay | 100% |
| Bone morphogenetic protein receptor type-1A (BMPR1A, Homo sapiens, UniProt P36894) | binding | 100% |
| Ankyrin repeat and protein kinase domain-containing protein 1 (ANKK1, Homo sapiens, UniProt Q8NFD2) | cell-free assay | 73% |
| Receptor-type tyrosine-protein kinase FLT3 (FLT3, Homo sapiens, UniProt P36888, N841I) | cell-free assay | 90% |
| Mitogen-activated protein kinase kinase kinase kinase 1 (MAP4K1, Homo sapiens, UniProt Q92918) | cell-free assay | 83% |
| Megakaryocyte-associated tyrosine-protein kinase (MATK, Homo sapiens, UniProt P42679) | cell-free assay | 100% |
| Mitogen-activated protein kinase 6 (MAPK6, Homo sapiens, UniProt Q16659) | cell-free assay | 88% |
| Cyclin-dependent kinase 7 (CDK7, Homo sapiens, UniProt P50613) | cell-free assay | 92% |
| Casein kinase II subunit alpha (CSNK2A1, Homo sapiens, UniProt P68400) | cell-free assay | 84% |
| Tyrosine-protein kinase ABL1, non-phosphorylated (ABL1, Homo sapiens, UniProt P00519, T315I) | cell-free assay | 82% |
| Calcium/calmodulin-dependent protein kinase type 1B (PNCK, Homo sapiens, UniProt Q6P2M8) | cell-free assay | 100% |
| Mitogen-activated protein kinase 4 (MAPK4, Homo sapiens, UniProt P31152) | cell-free assay | 80% |

Study 3
Target: Sal-like protein 4, full length isoform A (SALL4, Homo sapiens, UniProt Q9UJQ4, residues 1-1053)
Chain of UniProt Q9UJQ4 (whole entry, looked up): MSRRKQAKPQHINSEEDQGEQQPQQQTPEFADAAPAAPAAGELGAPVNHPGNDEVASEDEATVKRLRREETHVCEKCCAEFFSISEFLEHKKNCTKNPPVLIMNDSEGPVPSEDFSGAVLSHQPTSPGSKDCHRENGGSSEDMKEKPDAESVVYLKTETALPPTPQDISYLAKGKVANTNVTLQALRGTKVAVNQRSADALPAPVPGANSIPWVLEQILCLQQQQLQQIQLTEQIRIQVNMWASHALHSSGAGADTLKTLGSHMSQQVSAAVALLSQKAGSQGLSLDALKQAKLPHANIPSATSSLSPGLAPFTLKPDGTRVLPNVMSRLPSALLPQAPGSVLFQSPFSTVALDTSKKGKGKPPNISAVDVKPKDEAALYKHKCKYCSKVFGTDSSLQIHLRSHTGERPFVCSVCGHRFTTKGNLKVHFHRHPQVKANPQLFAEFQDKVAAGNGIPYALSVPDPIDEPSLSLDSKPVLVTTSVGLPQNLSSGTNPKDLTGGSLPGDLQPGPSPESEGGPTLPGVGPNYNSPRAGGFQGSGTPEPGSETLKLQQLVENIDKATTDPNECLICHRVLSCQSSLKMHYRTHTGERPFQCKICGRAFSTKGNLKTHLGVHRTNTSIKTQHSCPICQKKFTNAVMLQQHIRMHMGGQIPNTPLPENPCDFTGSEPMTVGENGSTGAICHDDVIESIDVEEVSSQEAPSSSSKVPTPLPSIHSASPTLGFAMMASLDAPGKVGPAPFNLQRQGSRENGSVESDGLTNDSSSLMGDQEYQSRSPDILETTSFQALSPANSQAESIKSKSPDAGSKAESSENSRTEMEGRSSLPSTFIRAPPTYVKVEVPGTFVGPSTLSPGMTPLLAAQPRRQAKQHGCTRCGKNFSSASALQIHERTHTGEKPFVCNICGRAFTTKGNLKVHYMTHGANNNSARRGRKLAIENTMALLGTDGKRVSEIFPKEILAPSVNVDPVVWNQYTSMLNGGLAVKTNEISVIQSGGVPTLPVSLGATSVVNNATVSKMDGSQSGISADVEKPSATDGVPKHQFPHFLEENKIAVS
Method: universal PBM
Molecule type: double-stranded DNA, one strand shown
Sample: in vitro
Concentration: 600 nM
Notes: 8-mer, flanks averaged, mean of replicates
Reading: higher = stronger binding
| Strand | E-score |
| --- | --- |
| GAGCGTCA | -0.194 |
| CATGGCCA | -0.112 |
| AGTCAAGG | -0.0363 |
| GCGCGAGA | -0.101 |
| AAATAACG | 0.299 |
| AATCAGAG | 0.0642 |
| AAGTGCAG | -0.0596 |
| CTGCGGCC | -0.391 |

Study 4
Target: RNA binding protein fox-1 homolog 2, RRM domain, GST-SBP tag (RBFOX2, Homo sapiens, UniProt O43251-10, residues 100-194)
Method: RNA Bind-n-Seq
Molecule type: RNA
Sample: in vitro
Concentration: 365 nM
Notes: natural RNA segment, single round, ends assumed
Baseline: no-protein control
Reading: higher = stronger binding
Constant ends, left off below: GGGAGUUCUACAGUCCGACGAUC … UGGAAUUCUCGGGUGCCAA
Target sequence (chain): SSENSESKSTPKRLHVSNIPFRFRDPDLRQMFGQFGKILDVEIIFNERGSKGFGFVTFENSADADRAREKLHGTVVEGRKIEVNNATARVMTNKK
| Strand | RBNS enrichment (R) |
| --- | --- |
| UAAUAACCUGUUUUGUGUGCAGUUAAUCCAUUCUGAAGCAGGUGAAAGGUCAGUAUUUUAGCAUUUUAAAAGAUGAGUUAUAUAAUGUCUGCUUCCAGCCAGUCUGCAAC | 0.616 |
| GUGAUGAUGAUGUGAAUUGUUUCCAGUGAGGGGAUUGAGUCAAAACUUGGAUCUCAGGUACCUCAAUUUUUCCCCCAAUUUCUGGCUACUACUAAAAGCCAGAAAGAACA | 0.349 |
| CUCAUUCCUUUCCUCUGGCCCAGUGAAUUUGGUCUCUCCCAGCUCUGGGGGACUCCUUCCUUGAACCCUAAUAAGACCCCACUGGAGUCUCUCUCUCUCCAUCCCUCUCC | 0.565 |
| AACUGGCGUGAAAGGUGAGCAGGCGUCUGCGGAGCGGAUUCCUGUGGUGGACCGUGGAGUGCAGAGGUUUAGGGAGAUCCUGCCAUUGCUCACACAAGAAGACAGAGCCG | 1.4 |
| CUUGUAUUUAUUUCAAGGAAACCAAUGAAUUCUAGGUAGUAUAUUACAAGUUGGUCAAAAUAUUCCAUGUACAAAUAGGGCUUCUGUGUCCAUAGCCUUGUAAGAGAUAC | 0.616 |
| UCUACCAAAAACAGGGCUAAGGGCUGGAGAUGGAUCCCCGUUCCUUGUCCAGCCUCCUGCUACCGCUGCCCACCUCCUGCCUCCAUUGCCCAGGCCACACUAGUUGGCCC | 0.434 |
| AUAUUAUAUCAGACCUCCUUAAGAAAAUGAGUAUGGAUGUUCACAGUAUGUUUGAUUUUUAUCCACAAGAAUGAAUCUGAUUCAGAAUGCUUUUCAGCUGACAUACAGAG | 5.73 |
| UGGGUCCCUUGUACAUAACUCCUUGUGACAAAACCCUCUGGAAGUUCUGGACCCCAUUUUUGAUAGGCUUUUUUGUCUUGUCCUCUACUCAUGCUGUCUUGGACUCACUG | 0.667 |

Repeated from above (study 2):
| target | observed | remaining binding |
| --- | --- | --- |
| Megakaryocyte-associated tyrosine-protein kinase (MATK, Homo sapiens, UniProt P42679) | cell-free assay | 100% |
| Mitogen-activated protein kinase 6 (MAPK6, Homo sapiens, UniProt Q16659) | cell-free assay | 88% |
| Cyclin-dependent kinase 7 (CDK7, Homo sapiens, UniProt P50613) | cell-free assay | 92% |
| Casein kinase II subunit alpha (CSNK2A1, Homo sapiens, UniProt P68400) | cell-free assay | 84% |
